Assay results from different studies.
± gives the spread as reported.
CSNK2A1: Casein kinase II subunit alpha (CSNK2A1, Homo sapiens, UniProt P68400)
Sequence of UniProt P68400 (whole entry, looked up): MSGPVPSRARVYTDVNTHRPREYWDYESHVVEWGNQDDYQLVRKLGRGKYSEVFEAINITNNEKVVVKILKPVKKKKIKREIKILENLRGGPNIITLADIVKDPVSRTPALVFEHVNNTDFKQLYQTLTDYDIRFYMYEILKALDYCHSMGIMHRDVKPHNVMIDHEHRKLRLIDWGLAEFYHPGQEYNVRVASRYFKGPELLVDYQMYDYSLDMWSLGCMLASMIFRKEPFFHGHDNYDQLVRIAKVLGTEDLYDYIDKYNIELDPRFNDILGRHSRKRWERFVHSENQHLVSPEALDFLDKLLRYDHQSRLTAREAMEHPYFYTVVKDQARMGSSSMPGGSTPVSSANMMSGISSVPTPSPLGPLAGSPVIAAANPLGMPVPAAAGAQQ
KLRK1 with MICA: NKG2-D type II integral membrane protein, with MICA (KLRK1, Homo sapiens, UniProt P26718)
Sequence of UniProt P26718 (whole entry, looked up): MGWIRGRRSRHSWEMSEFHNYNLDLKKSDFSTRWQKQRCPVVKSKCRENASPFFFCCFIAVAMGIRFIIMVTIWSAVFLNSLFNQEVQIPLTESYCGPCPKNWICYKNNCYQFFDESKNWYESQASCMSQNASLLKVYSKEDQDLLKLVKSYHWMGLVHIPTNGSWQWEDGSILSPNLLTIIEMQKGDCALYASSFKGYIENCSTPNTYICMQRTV
Metallo-beta-lactamase type 2: Metallo-beta-lactamase type 2 (Serratia marcescens, UniProt P52699)
NNMT: Nicotinamide N-methyltransferase (NNMT, Homo sapiens, UniProt P40261)
Sequence of UniProt P40261 (whole entry, looked up): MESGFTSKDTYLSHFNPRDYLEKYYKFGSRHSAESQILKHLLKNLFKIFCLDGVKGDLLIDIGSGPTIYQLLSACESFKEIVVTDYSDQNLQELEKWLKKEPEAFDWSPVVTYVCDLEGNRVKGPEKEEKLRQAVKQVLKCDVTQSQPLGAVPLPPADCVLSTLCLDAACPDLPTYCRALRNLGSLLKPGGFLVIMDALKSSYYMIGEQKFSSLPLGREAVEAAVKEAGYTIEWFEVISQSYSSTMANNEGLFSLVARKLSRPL
PDIA3: Protein disulfide-isomerase A3 (PDIA3, Homo sapiens, UniProt P30101)
Sequence of UniProt P30101 (whole entry, looked up): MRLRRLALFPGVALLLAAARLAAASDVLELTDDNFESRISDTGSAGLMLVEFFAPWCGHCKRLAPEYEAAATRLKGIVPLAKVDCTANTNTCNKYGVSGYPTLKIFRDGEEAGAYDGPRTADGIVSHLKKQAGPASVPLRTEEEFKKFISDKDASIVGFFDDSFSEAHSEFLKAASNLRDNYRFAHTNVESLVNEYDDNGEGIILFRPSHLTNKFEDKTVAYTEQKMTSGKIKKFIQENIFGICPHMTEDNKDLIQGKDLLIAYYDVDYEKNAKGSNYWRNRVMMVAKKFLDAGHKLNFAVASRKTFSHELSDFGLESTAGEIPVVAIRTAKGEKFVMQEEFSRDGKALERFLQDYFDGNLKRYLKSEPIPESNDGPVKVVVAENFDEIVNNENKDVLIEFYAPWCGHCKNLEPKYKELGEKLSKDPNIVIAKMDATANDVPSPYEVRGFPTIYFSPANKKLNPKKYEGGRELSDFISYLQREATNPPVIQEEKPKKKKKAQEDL
Sequence of UniProt P32300 (whole entry, looked up): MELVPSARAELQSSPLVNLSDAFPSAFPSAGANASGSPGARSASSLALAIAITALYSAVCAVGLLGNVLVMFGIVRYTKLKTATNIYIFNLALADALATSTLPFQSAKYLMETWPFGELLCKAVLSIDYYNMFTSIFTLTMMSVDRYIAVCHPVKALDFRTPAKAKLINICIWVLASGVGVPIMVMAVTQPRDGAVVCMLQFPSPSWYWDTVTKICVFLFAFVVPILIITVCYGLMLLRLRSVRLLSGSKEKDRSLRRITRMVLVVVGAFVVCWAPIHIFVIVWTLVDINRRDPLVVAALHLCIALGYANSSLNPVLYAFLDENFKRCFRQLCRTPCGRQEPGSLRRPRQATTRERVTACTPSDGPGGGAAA
Sequence of UniProt Q7Z418 (whole entry, looked up): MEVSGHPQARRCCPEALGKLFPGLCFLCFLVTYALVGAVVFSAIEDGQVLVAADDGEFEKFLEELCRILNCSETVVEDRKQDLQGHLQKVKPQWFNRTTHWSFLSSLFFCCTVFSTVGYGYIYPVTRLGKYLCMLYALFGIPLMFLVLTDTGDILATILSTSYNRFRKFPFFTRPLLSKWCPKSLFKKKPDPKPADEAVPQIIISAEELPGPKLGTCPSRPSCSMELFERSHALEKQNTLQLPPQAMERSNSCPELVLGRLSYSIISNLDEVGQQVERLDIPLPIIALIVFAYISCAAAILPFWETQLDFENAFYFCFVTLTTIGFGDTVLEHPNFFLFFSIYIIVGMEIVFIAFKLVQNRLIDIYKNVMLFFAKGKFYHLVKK
Sequence of UniProt P07947 (whole entry, looked up): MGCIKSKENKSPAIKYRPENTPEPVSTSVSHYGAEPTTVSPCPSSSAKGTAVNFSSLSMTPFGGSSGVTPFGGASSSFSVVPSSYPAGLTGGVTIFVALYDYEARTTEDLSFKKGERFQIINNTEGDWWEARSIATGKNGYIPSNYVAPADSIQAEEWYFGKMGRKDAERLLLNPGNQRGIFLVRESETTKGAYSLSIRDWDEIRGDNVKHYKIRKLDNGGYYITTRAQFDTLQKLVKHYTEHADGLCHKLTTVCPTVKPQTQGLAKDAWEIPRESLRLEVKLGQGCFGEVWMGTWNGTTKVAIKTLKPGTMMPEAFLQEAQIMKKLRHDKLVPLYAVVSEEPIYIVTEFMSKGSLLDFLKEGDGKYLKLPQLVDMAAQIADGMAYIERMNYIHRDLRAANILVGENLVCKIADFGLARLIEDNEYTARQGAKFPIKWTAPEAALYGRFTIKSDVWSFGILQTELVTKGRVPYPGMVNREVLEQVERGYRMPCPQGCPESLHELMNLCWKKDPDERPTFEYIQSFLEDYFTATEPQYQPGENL
Sequence of UniProt Q86TU7 (whole entry, looked up): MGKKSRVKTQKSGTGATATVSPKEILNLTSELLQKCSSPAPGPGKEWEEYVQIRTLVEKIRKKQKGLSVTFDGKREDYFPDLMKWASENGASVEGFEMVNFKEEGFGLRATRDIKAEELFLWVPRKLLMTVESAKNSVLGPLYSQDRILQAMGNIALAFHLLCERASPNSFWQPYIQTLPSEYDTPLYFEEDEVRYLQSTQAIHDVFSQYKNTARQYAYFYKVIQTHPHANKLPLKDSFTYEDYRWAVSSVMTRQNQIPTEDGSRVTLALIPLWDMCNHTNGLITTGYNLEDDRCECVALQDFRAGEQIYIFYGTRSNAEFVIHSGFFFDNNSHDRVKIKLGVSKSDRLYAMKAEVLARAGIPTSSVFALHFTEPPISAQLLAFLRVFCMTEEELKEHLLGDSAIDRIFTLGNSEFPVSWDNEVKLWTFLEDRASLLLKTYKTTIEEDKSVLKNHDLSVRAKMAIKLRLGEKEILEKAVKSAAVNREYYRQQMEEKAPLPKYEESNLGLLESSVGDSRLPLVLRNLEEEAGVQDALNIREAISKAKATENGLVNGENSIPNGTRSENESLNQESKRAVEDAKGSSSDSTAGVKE
Sequence of UniProt Q99436 (whole entry, looked up): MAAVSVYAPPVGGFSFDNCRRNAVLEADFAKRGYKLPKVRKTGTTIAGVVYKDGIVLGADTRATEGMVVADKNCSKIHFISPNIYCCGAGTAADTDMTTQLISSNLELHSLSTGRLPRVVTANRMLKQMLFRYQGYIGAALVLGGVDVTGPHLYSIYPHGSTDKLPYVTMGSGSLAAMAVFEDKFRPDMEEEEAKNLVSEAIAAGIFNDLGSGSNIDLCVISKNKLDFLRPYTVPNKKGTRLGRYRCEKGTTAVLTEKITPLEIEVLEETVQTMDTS
Sequence of UniProt P11712 (whole entry, looked up): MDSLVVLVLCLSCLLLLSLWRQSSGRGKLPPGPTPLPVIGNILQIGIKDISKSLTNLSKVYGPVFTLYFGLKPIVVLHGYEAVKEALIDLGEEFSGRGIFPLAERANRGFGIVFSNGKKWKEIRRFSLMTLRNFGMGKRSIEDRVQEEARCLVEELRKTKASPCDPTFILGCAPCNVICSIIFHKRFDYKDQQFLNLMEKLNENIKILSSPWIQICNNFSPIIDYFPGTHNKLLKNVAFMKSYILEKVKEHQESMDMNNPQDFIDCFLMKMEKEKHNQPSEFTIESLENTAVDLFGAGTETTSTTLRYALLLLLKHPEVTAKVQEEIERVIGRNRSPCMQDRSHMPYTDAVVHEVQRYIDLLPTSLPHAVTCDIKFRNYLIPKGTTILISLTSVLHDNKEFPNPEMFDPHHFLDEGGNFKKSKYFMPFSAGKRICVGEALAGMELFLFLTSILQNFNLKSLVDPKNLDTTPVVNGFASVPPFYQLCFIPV
Sequence of UniProt O75469 (whole entry, looked up): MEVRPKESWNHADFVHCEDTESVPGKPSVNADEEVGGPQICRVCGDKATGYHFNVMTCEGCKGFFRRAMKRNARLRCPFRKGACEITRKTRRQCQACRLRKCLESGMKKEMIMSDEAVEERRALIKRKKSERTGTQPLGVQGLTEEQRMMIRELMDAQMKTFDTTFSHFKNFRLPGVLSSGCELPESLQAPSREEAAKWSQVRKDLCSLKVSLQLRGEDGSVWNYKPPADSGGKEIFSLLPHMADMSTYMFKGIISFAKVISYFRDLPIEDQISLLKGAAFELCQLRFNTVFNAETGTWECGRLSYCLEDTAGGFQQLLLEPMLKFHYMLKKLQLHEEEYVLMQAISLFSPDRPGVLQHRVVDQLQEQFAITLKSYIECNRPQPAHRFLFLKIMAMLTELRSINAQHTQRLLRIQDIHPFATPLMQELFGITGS
Sequence of UniProt P63104 (whole entry, looked up): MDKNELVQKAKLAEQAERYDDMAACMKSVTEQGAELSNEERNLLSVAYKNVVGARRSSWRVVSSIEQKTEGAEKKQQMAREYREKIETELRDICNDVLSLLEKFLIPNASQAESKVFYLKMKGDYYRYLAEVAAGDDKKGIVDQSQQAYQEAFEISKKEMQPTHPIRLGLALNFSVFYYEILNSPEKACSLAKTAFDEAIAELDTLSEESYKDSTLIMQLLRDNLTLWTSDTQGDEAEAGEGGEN

| SMILES | target | assay | test system | conditions | IC50 [µM] |
| --- | --- | --- | --- | --- | --- |
| C[C@H](CCC(=O)NCC(=O)O)[C@H]1CC[C@H]2[C@@H]3CC[C@@H]4C[C@H](O)CC[C@]4(C)[C@H]3CC[C@]12C | SHMT2 (Homo sapiens, UniProt P34897) | serine to glycine conversion, inhibitor | – | pH 7.5, 1% DMSO, with: L-serine 1 mM, THF 0.2 mM | 0.15 |
| COc1cc(/C=C(\C#N)C(=O)Nc2nnc(C(F)(F)F)s2)ccc1OC(=O)N1CCN(C(=O)CCCC(=O)NCCCC[C@@H]2NC(=O)[C@@H](Cc3ccc(O)cc3)NC(=O)[C@H](CC(=O)O)NC(=O)CNC(=O)[C@H](CCCNC(=N)N)NC2=O)CC1 | CSNK2A1 | enzyme activity, inhibitor | – | with: ATP 25 µM, casein | 63.8 |
| O=C1c2c(O)cc(O)cc2OC2(c3ccc(O)cc3)Oc3cc4oc(-c5ccc(O)c(O)c5)c(O)c(=O)c4c(O)c3C12O (racemic) | mushroom tyrosinase | – | – | pH 6.8 | 39.8 |
| Nc1ncnc2c1ncn2[C@@H]1O[C@H](CSCCNC(=O)NCC2CCCCC2)[C@@H](O)[C@H]1O | Actin-histidine N-methyltransferase (SETD3, Homo sapiens, UniProt Q86TU7) | enzyme activity, inhibitor, radiometric | – | – | > 50 |
| Cc1c(C(=O)CC2OC(=O)C(Cl)=C2Cl)sc2ccc(Cl)cc12 (stereo not drawn) | Genome polyprotein, 3C protease (Human hepatitis A virus genotype IB, UniProt P08617) | enzyme activity, inhibitor | – | – | 54 ± 16 |
| CC[C@H](C)[C@H]1C(=O)O[C@H](C(C)C)C(=O)N(C)[C@@H]([C@@H](C)CC)C(=O)O[C@H](C(C)C)C(=O)N(C)[C@@H]([C@@H](C)CC)C(=O)O[C@H](C(C)C)C(=O)N1C | Hsp90 chaperone machine | progesterone receptor hormone-binding recovery, inhibitor, reconstitution in rabbit reticulocyte lysate | – | with: [3H]progesterone | ~5 |
| CN(C(=O)c1ccn2ncc(-c3ccc(C(N)=O)cc3)c2c1)C1CCC(C#N)CC1 (stereo not drawn) | Phosphatidylinositol 4-kinase (Cryptosporidium parvum, UniProt Q5CVD3) | enzyme activity | – | with: ATP 3 µM | 3.7 |
| CC(=O)N[C@@H](CCCNC(=N)N)C(=O)N[C@H](C(=O)N1CCC[C@H]1C(=O)N[C@@H](COP(=O)(O)O)C(=O)N[C@@H](CC(C)C)C(=O)N1CCC[C@H]1C(=O)N[C@@H](C)C(=O)N1CCC[C@H]1C(c1ccccc1)c1ccccc1)[C@@H](C)O | YWHAZ (Homo sapiens, UniProt P63104) | peptide binding, inhibitor, competitive fluorescence polarization | – | 10 µM protein, with: 100 nM FAM-labelled diphosphorylated Tau peptide | 5.3 |
| COC(=O)C=CCCC(NC(=O)c1ccncc1C(=O)O)C(=O)NC(C(=O)N1CC(=O)CC1C(=O)NC(C(=O)NC(C(N)=O)C1CCCCC1)C1CCCCC1)C(C)(C)C (stereo not drawn) | Coagulation factor XIII A chain (Canis lupus familiaris, UniProt A0A8I3S1X8) | transamidation activity, inhibitor | – | dog enzyme, with: dansylcadaverine into N,N-dimethylcasein | 0.024 ± 0.0006 |
| CN(C)C(=O)[C@H]1NC(=O)c2cnccc2-c2ccc(cc2)C(F)(F)CCCC(F)(F)c2cccc1c2 | KLRK1 with MICA | ligand binding, inhibitor, TR-FRET | HEK293 expressing NKG2D and DAP10 | with: MICA-Alexa647 | 1.4 ± 0.3 |
| NC[C@@H](CC[C@H](N)C(=O)O)C[C@H]1O[C@@H](n2cnc3c(N)ncnc32)[C@H](O)[C@@H]1O | N6-adenosine-methyltransferase catalytic subunit, with METTL14 (METTL3, Homo sapiens, UniProt Q86U44) | enzyme activity, inhibitor, radiometric | – | METTL3-METTL14 complex | 3.4 |
| CCCCCCC[N+](CCCCCCC)(CCCCCCC)CCCCCCC | KCNK18 (Homo sapiens, UniProt Q7Z418) | ion current, inhibitor, patch clamp | – | – | 0.5 |
| C=C(NC(=O)C(=C)NC(=O)c1csc(C2=NC3c4csc(n4)C4NC(=O)c5csc(n5)C(C(C)(O)C(C)O)NC(=O)C5CSC(=N5)C(=CC)NC(=O)C(C(C)O)NC(=O)c5csc(n5)C3(CC2)NC(=O)C(C)NC(=O)C(=C)NC(=O)C(C(C)C)NC2C=Cc3c(C(C)O)cc(nc3C2O)C(=O)OC4C)n1)C(N)=O (stereo not drawn) | Proteasome subunit beta type-7, in 20S proteasome (PSMB7, Homo sapiens, UniProt Q99436) | trypsin-like activity, inhibitor | purified human 20S proteasome | 37 °C, 15 min preincubation, with: Boc-Leu-Arg-Arg-AMC | 0.84 ± 0.04 |
| C[C@H](CS)C(=O)Nc1ccccc1-c1nn[nH]n1 | Metallo-beta-lactamase type 2 | inhibitor | – | 10 min preincubation, with: FC5 substrate | 9.87 |
| Cc1cccc([C@H](NC(=O)c2cnccc2-c2ccc(C(F)(F)F)cc2)C(=O)N(C)C)c1 | KLRK1 with MICA | ligand binding, inhibitor, TR-FRET | HEK293 expressing NKG2D and DAP10 | with: MICA-Alexa647 | 0.7 ± 0.3 |
| O=c1oc2cc(O)c(O)cc2c2oc3cc4c(cc3c12)OCO4 | Genome polyprotein, NS5B polymerase (Hepatitis C virus genotype 1b, UniProt P26663) | NS5B RNA polymerase activity, inhibitor | hepatitis C virus, genotype 1b | with: poly(rA)/U12 | 63.8 |
| C#CCCC(=O)N[C@H]1CSCc2ccccc2CSCCNC(=O)[C@H](CCC(=O)O)NC(=O)[C@H](Cc2ccccc2)NC(=O)[C@@H]2CCCN2C(=O)[C@H](CC(N)=O)NC1=O | EH domain-containing protein 1, EH domain (Homo sapiens, UniProt Q9H4M9) | – | – | – | 76.5 ± 4.6 |

| SMILES | target | assay | test system | conditions | IC50 [µM] |
| --- | --- | --- | --- | --- | --- |
| CC(=O)Nc1ccc2ccn(-c3cc(NC4CCC4)n4ncc(C#N)c4n3)c2c1 | CSNK2A1 | target engagement in cells, BRET | – | – | 0.0126 |
| CC[C@H](C)[C@@H]1NC(=O)[C@H](CC(C)C)NC(=O)[C@H](C(C)C)NC(=O)[C@H](CC(C)C)NC(=O)[C@H](CCCCN)NC(=O)[C@H](CC(N)=O)NC(=O)[C@H](Cc2ccccc2)NC(=O)[C@H](Cc2ccccc2)NC(=O)[C@H](CCCNC(=N)N)NC(=O)[C@H](Cc2ccccc2)NC(=O)[C@H](C(C)C)NC(=O)[C@H](Cc2ccc(O)cc2)NC(=O)[C@H]([C@@H](C)CC)NC(=O)[C@H]([C@@H](C)O)NC(=O)[C@@H](Cc2ccc(O)cc2)NC(=O)CSC[C@@H](C(=O)NCC(N)=O)NC(=O)[C@H](CC(N)=O)NC1=O | NNMT | enzyme activity, inhibitor, mass spectrometry | – | – | 1.13 |
| COCc1c(C(=O)O)nnn1Cc1c(F)cccc1Cl | Metallo-beta-lactamase type 2 | inhibitor | – | 10 min preincubation, with: FC5 fluorogenic substrate | 2.37 |
| CC(C)[C@H](NC(=O)[C@@H]1CCCCNC(=O)NCCC[C@@H](NC(=O)[C@@H](N)Cc2ccc(O)cc2)C(=O)NCC(=O)N[C@@H](Cc2ccccc2)C(=O)N1)C(=O)N[C@H](C(=O)NCC(=O)NCCNC(N)=O)C(C)C | Oprd1 (Mus musculus, UniProt P32300) | contraction inhibition, agonist | mouse, isolated vas deferens | – | 0.0145 ± 0.001 |
| NC(=O)C1CN1S(=O)(=O)c1ccc(F)cc1F (stereo not drawn) | PDIA3 | enzyme activity, inhibitor, absorbance | – | pH 7.6 | 25 |
| CNC(=O)NC(=N)NCCC[C@@H]1NC(=O)[C@@H](C)NC(=O)C[C@@H](C(=O)O)NC(=O)C[C@@H](C(=O)O)NC(=O)[C@H](Cc2ccc(O)cc2)N(C)C1=O | Endochitinase B1 (Aspergillus fumigatus, UniProt Q873X9) | enzyme activity, inhibitor, fluorometric | – | 10 min, pH 5.5, 37 °C, with: 20 µM 4-MU-chitobiose | 0.144 |
| COC(=O)C[C@H](NC(=O)[C@H](C)NC(=O)[C@@H](NC(=O)[C@H](CC(=O)OC)NC(=O)[C@@H](NC(=O)c1ccc2ccccc2n1)C(C)C)C(C)C)C(=O)COc1c(F)cccc1F | Caspase-2 (Homo sapiens, UniProt P42575) | enzyme activity, inhibitor, absorbance | – | – | 0.48 |
| CC[C@H](C)[C@H](NC(=O)[C@H](CO)NC(=O)[C@H](CC(=O)O)NC(=O)[C@@H](NC(=O)[C@@H](NC(=O)[C@@H](NC(=O)CNC(=O)[C@H](CCC(N)=O)NC(=O)[C@H](CCC(N)=O)NC(=O)[C@H](Cc1ccc(O)cc1)NC(=O)[C@H](C)NC(=O)[C@@H](N)CCCCN)C(C)C)[C@@H](C)O)C(C)C)C(=O)NCC(=O)N[C@@H](CCSC)C(=O)N[C@@H](CC(C)C)C(=O)N1CCC[C@H]1C(=O)N[C@@H](CCCNC(=N)N)C(=O)N[C@@H](Cc1ccccc1)C(=O)N[C@H](C(=O)N1CCC[C@H]1C(=O)O)[C@@H](C)O | HLA-DRA/HLA-DRB3 (Homo sapiens, UniProt P01903+P79483) | binding, competition binding | purified HLA-DR | 48 h, with: radiolabelled probe peptide 0.1-1 nM | 0.086 |
| CCn1nnc(-c2cccc(NC(=O)[C@H](C)CS)c2)n1 | Metallo-beta-lactamase type 2 | inhibitor | – | 10 min preincubation, with: FC5 substrate | 6.23 |
| CN(C)C(=O)C1CN1S(=O)(=O)c1ccc(F)cc1F (stereo not drawn) | PDIA3 | enzyme activity, inhibitor, absorbance | – | pH 7.6 | 24.6 |
| CNC(=O)C1CCN(c2ccccc2NC(=O)c2ccc(-c3cc(O)ccc3C)c(C)n2)CC1 | YES1 (Homo sapiens, UniProt P07947) | target engagement in cells, BRET | – | – | 6.35 |
| CCC1=CC2CN3CCc4c([nH]c5ccccc45)C(C(=O)OC)(C2)C13 (stereo not drawn) | NR1I2 (Homo sapiens, UniProt O75469) | – | – | – | 20.5 |
| CC[C@H](C)[C@@H]1NC(=O)[C@H](CC(C)C)NC(=O)[C@H](Cc2ccc(O)cc2)NC(=O)[C@H]([C@@H](C)CC)NC(=O)[C@H]([C@@H](C)O)NC(=O)[C@H](Cc2ccc(O)cc2)NC(=O)CSC[C@@H](C(=O)NCC(N)=O)NC(=O)[C@H](CO)NC(=O)[C@H](Cc2c[nH]cn2)NC(=O)[C@H](C(C)C)NC(=O)[C@H](C)NC(=O)[C@H](Cc2ccccc2)NC(=O)[C@H](CC(C)C)NC(=O)[C@H](Cc2ccc(O)cc2)NC(=O)[C@H](CCCNC(=N)N)NC(=O)[C@H](CCCCN)NC(=O)[C@H](CCC(N)=O)NC1=O | NNMT | enzyme activity, inhibitor, mass spectrometry | – | – | 2.24 |
| CC[N+](CC)(CC)CC | Potassium channel protein kcv, two L70A, two L70Y (A250R, Paramecium bursaria Chlorella virus 1, UniProt Q84568, L70A/L70Y) | – | – | – | 5900 ± 400 |
| CSc1ccc2c(c1)C(N1CCN(C)CC1)Cc1ccccc1S2 (stereo not drawn) | 5-hydroxytryptamine receptor 2A (5-HT1A, Drosophila melanogaster, UniProt P28285) | calcium response, antagonist, calcium imaging | HEK293T | with: 5-HT near EC50 | 27 |
| CNc1nc(SC)nc2ccccc12 | Cytochrome P450 2C9 (CYP2C9, Homo sapiens, UniProt P11712) | inhibitor | – | – | > 50 |

Some of these lines once more:
| SMILES | target | assay | test system | conditions | IC50 [µM] |
| --- | --- | --- | --- | --- | --- |
| CN(C(=O)c1ccn2ncc(-c3ccc(C(N)=O)cc3)c2c1)C1CCC(C#N)CC1 (stereo not drawn) | Phosphatidylinositol 4-kinase (Cryptosporidium parvum, UniProt Q5CVD3) | enzyme activity | – | with: ATP 3 µM | 3.7 |
| CC(=O)N[C@@H](CCCNC(=N)N)C(=O)N[C@H](C(=O)N1CCC[C@H]1C(=O)N[C@@H](COP(=O)(O)O)C(=O)N[C@@H](CC(C)C)C(=O)N1CCC[C@H]1C(=O)N[C@@H](C)C(=O)N1CCC[C@H]1C(c1ccccc1)c1ccccc1)[C@@H](C)O | YWHAZ (Homo sapiens, UniProt P63104) | peptide binding, inhibitor, competitive fluorescence polarization | – | 10 µM protein, with: 100 nM FAM-labelled diphosphorylated Tau peptide | 5.3 |
| COC(=O)C=CCCC(NC(=O)c1ccncc1C(=O)O)C(=O)NC(C(=O)N1CC(=O)CC1C(=O)NC(C(=O)NC(C(N)=O)C1CCCCC1)C1CCCCC1)C(C)(C)C (stereo not drawn) | Coagulation factor XIII A chain (Canis lupus familiaris, UniProt A0A8I3S1X8) | transamidation activity, inhibitor | – | dog enzyme, with: dansylcadaverine into N,N-dimethylcasein | 0.024 ± 0.0006 |
| CN(C)C(=O)[C@H]1NC(=O)c2cnccc2-c2ccc(cc2)C(F)(F)CCCC(F)(F)c2cccc1c2 | KLRK1 with MICA | ligand binding, inhibitor, TR-FRET | HEK293 expressing NKG2D and DAP10 | with: MICA-Alexa647 | 1.4 ± 0.3 |
| NC[C@@H](CC[C@H](N)C(=O)O)C[C@H]1O[C@@H](n2cnc3c(N)ncnc32)[C@H](O)[C@@H]1O | N6-adenosine-methyltransferase catalytic subunit, with METTL14 (METTL3, Homo sapiens, UniProt Q86U44) | enzyme activity, inhibitor, radiometric | – | METTL3-METTL14 complex | 3.4 |
